Assay results of several laboratories.
Every numbered part comes from another study and shows a few of its results, in no order. Changes are numbered by the printed parent chain.

Series 1
Target: Sal-like protein 4, full length isoform B (SALL4, Homo sapiens, UniProt Q9UJQ4-2, residues 1-616)
Technique: universal PBM
Form: double-stranded DNA, one strand shown
Matrix: in vitro
Concentration: not given
Setting: 8-mer, flanks averaged, mean of replicates
Reading: higher = stronger binding
Endpoint: E-score
Residues (chain): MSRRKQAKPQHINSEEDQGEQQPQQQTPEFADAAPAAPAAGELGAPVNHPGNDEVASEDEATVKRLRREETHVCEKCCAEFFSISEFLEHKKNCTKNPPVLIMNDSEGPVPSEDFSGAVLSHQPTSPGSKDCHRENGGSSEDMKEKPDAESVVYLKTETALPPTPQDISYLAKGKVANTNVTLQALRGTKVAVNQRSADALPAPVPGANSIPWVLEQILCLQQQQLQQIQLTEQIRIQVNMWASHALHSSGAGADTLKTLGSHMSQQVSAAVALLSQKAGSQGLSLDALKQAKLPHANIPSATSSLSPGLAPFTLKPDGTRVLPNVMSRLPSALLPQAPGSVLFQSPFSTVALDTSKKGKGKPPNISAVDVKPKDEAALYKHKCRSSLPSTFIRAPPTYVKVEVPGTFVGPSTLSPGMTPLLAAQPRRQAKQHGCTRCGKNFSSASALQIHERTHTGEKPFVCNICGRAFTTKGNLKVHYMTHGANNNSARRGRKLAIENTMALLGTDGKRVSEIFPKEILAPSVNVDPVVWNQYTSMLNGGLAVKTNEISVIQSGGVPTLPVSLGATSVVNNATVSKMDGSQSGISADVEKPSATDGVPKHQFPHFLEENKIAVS
ATGAGCCC: -0.169
CAAAGTCG: -0.117
GGCGTTCA: -0.0741
AAGTCCCA: -0.0695
ACATTTTC: 0.159
TAACATAA: 0.356
CATGAACC: -0.0806
ACTATCAA: 0.0984
GTCGCCAA: -0.13
CCTTTGGC: -0.174
CAAGCCAG: -0.233
AGTCCGTC: -0.127
CGAATGCG: 0.0362
TAATTGAA: 0.277
ACTACCAG: -0.163
GCCTTCGA: -0.112
ATTAGGAC: 0.151
AGGAGACT: -0.0444

Series 2
Target: ABI1, truncated, D143A, DHFR fusion (Arabidopsis thaliana)
Technique: DHFR PCA, deep sequencing
Matrix: yeast
Setting: methotrexate growth selection, single substitutions
With: (+)-ABA 0.39 µM
Relative to: wild-type fitted maximum
Reading: higher = stronger binding
Endpoint: relative binding score
Starting sequence: PYL1, truncated, DHFR fusion (Arabidopsis thaliana); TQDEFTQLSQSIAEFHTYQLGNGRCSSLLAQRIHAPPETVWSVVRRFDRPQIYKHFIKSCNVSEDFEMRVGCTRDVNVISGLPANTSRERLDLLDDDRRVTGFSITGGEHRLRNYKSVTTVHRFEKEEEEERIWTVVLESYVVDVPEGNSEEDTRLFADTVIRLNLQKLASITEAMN; partner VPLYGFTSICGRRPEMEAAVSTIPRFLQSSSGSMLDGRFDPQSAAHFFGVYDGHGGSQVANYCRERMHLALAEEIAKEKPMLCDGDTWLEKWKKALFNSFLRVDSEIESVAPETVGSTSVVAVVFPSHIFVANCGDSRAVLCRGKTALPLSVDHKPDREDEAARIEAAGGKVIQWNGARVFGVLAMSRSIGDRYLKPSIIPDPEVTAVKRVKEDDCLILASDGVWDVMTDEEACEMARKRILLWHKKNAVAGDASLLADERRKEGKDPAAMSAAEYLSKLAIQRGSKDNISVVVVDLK
I57C: -7.28%
L91T: -8.42%
I162E: -5.32%
S80H: 30.5%
K58M: 2.86%
D75P: -8.79%
Q31A: -2.4%
G81A: 8.78%
D48G: 1.42%
Y18N: -6.25%
R132F: 26.6%
G107D: 32.1%
V137P: 12.3%
T173G: -3.44%
A175I: -3.03%
E139W: 20.1%
N85F: 62.1%
N177G: 62.8%
D65G: 37.7%

Series 3
Target: RING finger protein unkempt homolog, zinc fingers 1-6, SBP tag (UNK, Homo sapiens, UniProt Q9C0B0, residues 30-357)
Chain of UniProt Q9C0B0 (30-357, looked up): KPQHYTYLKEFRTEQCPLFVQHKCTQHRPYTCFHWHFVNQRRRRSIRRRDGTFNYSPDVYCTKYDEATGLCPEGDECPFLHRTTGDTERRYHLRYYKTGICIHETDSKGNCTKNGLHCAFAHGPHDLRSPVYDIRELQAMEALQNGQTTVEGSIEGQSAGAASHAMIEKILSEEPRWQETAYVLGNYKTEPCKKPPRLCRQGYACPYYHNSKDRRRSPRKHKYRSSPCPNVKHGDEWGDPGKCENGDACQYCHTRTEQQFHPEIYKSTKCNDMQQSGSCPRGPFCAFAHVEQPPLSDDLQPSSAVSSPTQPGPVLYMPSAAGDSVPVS
Technique: RNA Bind-n-Seq
Form: RNA
Matrix: in vitro
Concentration: 100 nM
Setting: RNA with constant flanks, vertebrate orthologous sites, ends assumed
Relative to: input RNA pool
Reading: higher = stronger binding
Endpoint: bound/input enrichment
Constant ends, left off below: GGGAGUUCUACAGUCCGACGAUC … CAACAGAGGAUUGAGCAUCA
CCCUCUUAAUCCCAUAUCUUCUGUUUCAUAGUACUGAAGUCUUAUCUUCAGUUACUAUAUUAGUGACCUUAUUUUAAUUUUAGAGAAACCCUCAGCAUGGAUACUGUGAGCUUACGUGGA: 8.45 ratio
GUCAUCUGACUGGAUGAAGACUGUUCCAAGUUACAACCAAACAAGUAGCUCCGUGGACUUUAGGAAUUACAUGAUGAGAGAUGAGAAUCUGGAACCACUGCCCAAAAACUGGGAAAUGGC: 0.491 ratio
CAGGGAUGGCCCCAAUCCCACCUCUGUUUAUUCUGUAAACUUCAACCUGUAAAUAACGUUUAGCAUUCCUAUUGUAACAAAAUUAAUUUUUAUGAAAUAAAUUAUAUUUCCUAGUCUAAU: 1.04 ratio
UAGAAUUAUGAAGAAAAAAAAAUACCAAUAGAAUUUACGUUUAAUUCUCCUCCCCCCGCCUAUCGAAAAGAUUUUUCAAGACAGAUCAUUCAGUGUGUGAGUGUGCGUGCACAUGUUAUA: 2.05 ratio
UUACAGUCAUUGAUGGACUCUAUUUUUUUAUUAUUACUUGGACCUUGGUCGUUUUUAUACUAGCAAAAUGUCUUGUUUUACUUUGUGUUUUUUGGGGGGAGGGAGGGAGUGAACUUGCUG: 2.21 ratio
GCAAUGAAAAAGCAGCCCUUCUCCCAGCCCCCUUUUCACUAGGAGAUACAAACGUUACCAUAGAAGAGCAAUUAAACUCAGUAAAUUUAUCUUUUCAGGAUGAUCCAGACUCCAGUACCA: 1.28 ratio
GAUGGUGGUUGUGCAUUUCAUUUCAUUUAGAAAAUAUAAAAAUUCAUUUUGUUUCGAAGCAAGGUAUUUACUGGAAUAGCUAUUAUUAUACUCCUGAGAUUAGGGCAUUGUGCCCUUACC: 3.45 ratio
CGUCCUUGUGUACUGUCCCCAACCAGGGCCAAGGGCCAGAUGUCUCUCUGAGGACUUGCAUUUAAAACAUUUUUUAAAUCGUUGUACAGGAAGAGAUGUGUCUGAGCAGCAUCUCGAAGU: 0.512 ratio

Series 4
Target: CCND1, cyclin fold, Cln2 fusion (human)
Technique: yeast growth competition, sequencing
Matrix: yeast
Setting: weak parent motif
Relative to: not given
Reading: higher = stronger binding
Endpoint: normalised enrichment score
Starting sequence: CDC6 docking peptide (human); TLKGRRLVFDNQL
TLTGRRLVFDNQL [K3T]: 0.789
TLKGRRLVFDNNL [Q12N]: -0.131
TLKGRRVVFDNQL [L7V]: -0.0558
TLKGARAVFDNQL [R5A L7A]: 0.19
TLKGRRLVFDDQL [N11D]: 1.19
TLKGRRLVFDNQC [L13C]: 0.572
TSKGRRLVFDNQL [L2S]: -0.304
TWKGRRLVFDNQL [L2W]: 0.728
TLKGRRLVFDNQP [L13P]: 0.797
TLKGRFLVFDNQL [R6F]: 0.139
TLKGRRLVFDNKL [Q12K]: -0.345
TLKGQRLVFDNQL [R5Q]: 0.154
TLKGRRLVFDNQF [L13F]: 0.429
TLKGRQLVFDNQL [R6Q]: 0.511
TLKGRRLVFDQQL [N11Q]: 0.544
WLKGRRLVFDNQL [T1W]: 0.533
TLLGRRLVFDNQL [K3L]: 0.366
TLKGRRLVYDNQL [F9Y]: -0.151
TLHGRRLVFDNQL [K3H]: -0.0941
TLKGRRLVFENQL [D10E]: 0.122
ILKGRRLVFDNQL [T1I]: 0.0886
TLKGRRLVFDNGL [Q12G]: 1.19
TLKCRRLVFDNQL [G4C]: 1.27
TLKGRRSVFDNQL [L7S]: -0.17
TLKGRTLVFDNQL [R6T]: 0.324

Excerpt of the above (series 4):
TWKGRRLVFDNQL [L2W]: 0.728
TLKGRRLVFDNQP [L13P]: 0.797
TLKGRFLVFDNQL [R6F]: 0.139
TLKGRRLVFDNKL [Q12K]: -0.345
